# Assay results gathered from unrelated publications.
# Every numbered part comes from another study and shows a few of its results, in no order. Positions count from the first letter of the parent shown.

# Sample 1
# Target: RING finger protein unkempt homolog, zinc fingers 1-6, SBP tag (UNK, Homo sapiens, UniProt Q9C0B0, residues 30-357)
# Sequence of UniProt Q9C0B0 (30-357, looked up): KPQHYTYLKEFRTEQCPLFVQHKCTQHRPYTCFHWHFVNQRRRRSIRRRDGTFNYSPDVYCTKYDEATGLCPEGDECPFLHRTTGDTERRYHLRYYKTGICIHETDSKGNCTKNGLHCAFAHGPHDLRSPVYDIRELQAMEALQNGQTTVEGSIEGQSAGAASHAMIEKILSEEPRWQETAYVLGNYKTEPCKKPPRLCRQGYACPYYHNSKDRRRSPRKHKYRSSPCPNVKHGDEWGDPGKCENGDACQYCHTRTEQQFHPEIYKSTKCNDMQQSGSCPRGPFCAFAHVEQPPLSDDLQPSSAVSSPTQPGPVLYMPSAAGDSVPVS
# Method: RNA Bind-n-Seq
# Form: RNA
# Medium: in vitro
# Concentration: 100 nM
# Setting: RNA with constant flanks, vertebrate orthologous sites, ends assumed
# Reference: input RNA pool
# Direction: higher = stronger binding
# All sequences stand within: GGGAGUUCUACAGUCCGACGAUC … CAACAGAGGAUUGAGCAUCA
Strand,bound/input enrichment
AGAAAAUUUUAACCAAGAAUCUGAAGGUAGAAAUACAGGACCAUGGUUAUCUUCCUCACUUAGAAAUAGAUGCACACCUUUGUUCUCUAGAAGGAGACGAGAGGGACGAGAUGAAUCUUC,0.633 ratio
CAUUGUACCCUGCUGUAUAAUAAACAAUCUUAGACAUUUAUCAACUGUUGAUACAAAUGUUAGUUCCUAACCACUUUUUAUAUAUGUUUUAAAUUUUUGAAAUUCAAGUGUACCUGCCAU,1.19 ratio
CUGGGAAAAGUUCUUCAAGUGGGAGCAGUUUAAAAAAGAAUAAACAAAAUGCUGUUUCUCCUGAAAAGUCAGGAGAAAAUAAAUCAUGUAAGACAGACAGUUGUACUCCUGGAUGUACAA,0.48 ratio
GCAGAAAAGGGGUUAGCAUCUUUAUUUUUAUAUCAAAGAUAAAGGUUAUUUUAAAAUUAUUAGGAUUUCUAUGCAACUUGAAACUCUCUGUUGCUUUUAUAAGCAAAUUAUGUUGGGUCU,2.08 ratio
GAGUGCUUAAGCCAAGAAAAAUUCUAAAAUGCUAUUUAUUUGUUUCUGUAAGUUUGUACAUAAUACUAUCAACCUCACAUUGUUCUUGAGUUUUGAUUUUUUUUAAUCAGUUUGAAUUUU,0.497 ratio
UUCACCACUCCUGGGUGCGUGAUUGAGGGUGAAGCAUCCACCAGCACUUCAAGGGGUCCAUAGUAUUUUUUUUUGCUGCCUCAGAGUCCCCAGAGCCUUCGAGUAGAAGUGGCAGUAGCU,1.93 ratio
CUCUAUGGGCCUCGCAGAGUUGAAAUAAUGGAAGAGGAAAGUGAAUAGUAAUCUUCAUUUUAGUAUUUAUGCUUAGAUGUGAAAAUAAAUGUUAUUUGUUGAUCAUUUCUAUAAUCCAGA,0.533 ratio
UCAGUGACAGAAAGGCGCCCAUGAAGACCAGGAGCGGUCACGCUGGGCGUCGGCGGGGCCUGGGGUCAGGCACUGCGACCAAGUCUUCUCACAUCCCGUGUCCGCUCACUCGAGUCAUCU,0.26 ratio
UGUACAAUAAUGAAAACCUACAGGAAUUUUUUUAUUUUUCAUUUUCCCUUUAGGCAUAUUUAGUGAUAUUUUCCCCAGGCAGAUCAUUCUGAGUGUGCGAGUGUGUGUGCACAUGUUACA,1.14 ratio
AAGAGAUUGUCAGUUUGUAUGCAUAUUACCAUGUUCUCUCUGUUGUGUUUGCUCAUCAGGAGUCCCACCUCUUUCAUUUCACAUCGUUCUGUUGCAUGAAGUUGCCCUUUUACAAGAGAA,0.252 ratio
AAAAAACCCCGAUUUUAGAUAUUUAGGCUUUCAUUCUAGUUGGUUUUGUCUUUUCUUGUUUAGAUACCACUUAAAUUCUUGGCAUUUUAGUAAGCAAGCUACCUUUUUAUGGAUGUUAGC,1.12 ratio

# Sample 2
# Target: CCND3, cyclin fold, Cln2 fusion (human)
# Method: yeast growth competition, sequencing
# Medium: yeast
# Setting: weak parent motif
# Reference: not given
# Direction: higher = stronger binding
# Starting sequence: MASTL docking peptide (human); PMIAKNLMCELDE
Change,normalised enrichment score
K5E,0.00454
K5T,-0.166
A4C,-0.296
M2A,-0.026
A4M,-0.0223
M2T,0.0464
D12G,-0.0925
L7R,-0.0668
I3T,0.0557
N6C,0.0459
M2E,0.0689
N6D,-0.0894
K5S,-0.315
I3P,-0.162
I3R,0.0298
I3A,-0.000948
C9P,-0.059
N6V,0.117

# Sample 3
# Target: Histone acetyltransferase KAT6A, winged helix 2, GST fusion (KAT6A, Homo sapiens, UniProt Q92794, residues 85-181)
# Method: protein binding microarray
# Form: double-stranded DNA, one strand shown
# Medium: in vitro
# Concentration: not given
# Setting: 8-mer, flanks averaged, mean of 2 arrays, mostly near background
# Reference: not given
# Direction: higher = stronger binding
# Target sequence (chain): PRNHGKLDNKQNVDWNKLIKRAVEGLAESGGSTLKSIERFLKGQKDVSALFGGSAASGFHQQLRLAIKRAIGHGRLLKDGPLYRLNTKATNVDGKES
Strand,E-score
GTCGGACA,0.0141
ACCAAGCT,-0.0441
GCTAGGCA,-0.0546
CAACTGTA,-0.171
CACGTTGC,-0.0882
CCATCTTA,-0.0716
ACGGACCA,0.145
CATCCACC,0.0315
AGGCACGA,-0.0226
CGGTTGAG,0.195
CGTCAAAA,-0.048
CGTTTCTA,-0.0456
GATTCTGC,0.17
ATGGAGCC,-0.153
ACACGGGA,0.0395
GCGCCAAA,0.0521
AGTTTCCA,0.139
GGGAAGTA,-0.0537
TAGCTCAA,-0.00274
AGTCCCCG,0.0134
GCTTTCTA,0.15
AACTTCGA,-0.0898
ATCGTAAC,0.151
AACGGGCT,-0.224
GCGATGTA,-0.0197

# Sample 4
# Target: Sal-like protein 4, full length isoform B (SALL4, Homo sapiens, UniProt Q9UJQ4-2, residues 1-616)
# Method: universal PBM
# Form: double-stranded DNA, one strand shown
# Medium: in vitro
# Concentration: not given
# Setting: 8-mer, flanks averaged, mean of replicates
# Direction: higher = stronger binding
Strand,E-score
AAGCAAGA,0.109
ATGGTTGA,0.0219
GATCTTGA,0.105
CGGTTACC,-0.272
GGTAAAAA,0.16
CAAATAGC,0.184
GGAATCAC,0.036
GTAATCAA,0.207
AATTGGCA,0.146
CCTCCAAG,-0.138
TACAATCA,0.213
GACGCCGC,-0.374
GATTCCAA,-0.103
CCCTGCGC,-0.302
CATGAGAA,0.107
GTACAACA,0.149
AGATAGTC,-0.0114

# Sample 5
# Target: RNA binding protein fox-1 homolog 2, RRM domain, GST-SBP tag (RBFOX2, Homo sapiens, UniProt O43251-10, residues 100-194)
# Method: RNA Bind-n-Seq
# Form: RNA
# Medium: in vitro
# Concentration: 365 nM
# Setting: natural RNA segment, single round, ends assumed
# Reference: no-protein control
# Direction: higher = stronger binding
# All sequences stand within: GGGAGUUCUACAGUCCGACGAUC … UGGAAUUCUCGGGUGCCAA
# Target sequence (chain): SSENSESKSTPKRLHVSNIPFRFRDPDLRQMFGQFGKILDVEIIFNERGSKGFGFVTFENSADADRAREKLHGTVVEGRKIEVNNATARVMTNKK
Strand,RBNS enrichment (R)
CUCUCCCCUUUUUAUAAUGUAGAAGAAAGUAAUUGUCCUGUCUCAUUUGGGAAUUGAAUGUGGCCUCAGAUUUCUUCUAGUACUUGUUUUCGAUACAUAAUUAUGGUUUC,7.98
AGCCCUCGUCCUCUUUCUGUGAUCCGAUUGAGGAUUUUUUCCUCCUUCAAGUUAAUUUAAACAACUGCAGAGAUGUGUUUGUAGAGCACUUAGAGGUCUGGGGCUGGAAG,0.49
AAGAUAAUUCAACCAUCUAAUCAAAAUGGAUCUGGAUUACUAUGUAAAUUCACAGCAGUAAGAUAAUAUAAAUUUUGUUGAAUGUAUUAACAUCAUAUGGUCUGAAAAUG,0.333
CAACAGAAGCUGUGCAGCCAGGGCAGGCCCAGGCCAGCCAGUACCUGAGAGUAGGAAGGCCAGGCCCUUGAGGUCCUGUCCCAUGGGACAGCACACACACUACCUGCAAU,0.369
UAUUCUAUUGUAUUAUUUGGAGUUAGGUCCUCACUUGGGGGAAAAAAAAAAAAGAAAAGCCAAGCAAACCAAUGGUGAUCCUCUAUUUUGUGAUGAUGCUGUGACAAUAA,0.629
GAAAAGUACUGGAAAGAUCCAGACAUGUUCUAUCCUGAGCGAUUUCUGGACAGCAAUGGAUAUUUUACUAAAAAGGAAGCUUUGAUUCCUUUUUCUCUAGGGAGAAGACA,0.241
UGUUACUCACACUUAUGUCUUACUGGGUUGCUGGUUUUCAUCGUAACACAGAACGAGGUUAUCUAGGGUUGUAGCUUUUGAUACAACUCCCCGAUCUAGAUUUAUUCCUA,0.402
UACCAGUGGGCUGCUGCUCUGUGGCUGAGGGGCCAUCUAUGCAGAGUCUGUCCCUAUUUAUGUAUGGUGGUUGAGGGCUGUGUGGCCAGGACCAAGAGCAAGGCCCAGCU,0.761
GGACAGGGCUGCAGGGCCACGCUGGUGGGAAAGACAAGAGCUGUGAAGGGCCUGGUCCCUCUCUAGAUAGUGGUUUCUUUAGGGUUAACAAAAGGCUUUUGUUCAUACCA,0.6
GUUGGAGCCCCUGCAUCCCCUGGGUCCAGCCCCCUCUGCAUUUACACAGAUUUGAGUCAGAACUGGAAAGUGUCCCCCACCCCCACCACCCUCGAGCGGGGUUCCCCUCA,1.21
UUUUAGGUUAUUAAGGUAACUGCUAAUGAAGGAUUUUAAAAAGUGUCCUCAAAAAGGACUUAGCCCCGGGAGUUGUUUAUAAAAUUUCCCCCACUUGUAUACAGUGUGCA,4.47
GCCAAUUUCUCUCAGAUUUCCACAGAGACUGUUUGAAUGUUUUCAAAACCAAGUAUCACACUUUAAUGUACAUGGGCCGCACCAUAAUGAGAUGUGAGCCUUGUGCAUGU,4.43

# Sample 6
# Target: Fragile X messenger ribonucleoprotein 1, C-terminal low-complexity region (Fmr1, Mus musculus, UniProt P35922)
# Method: RNA Bind-n-Seq
# Form: RNA
# Medium: in vitro
# Concentration: 200 nM
# Setting: whole 134-nt RNA, ends assumed
# Together with: 150 mM LiCl
# Reference: input library
# Direction: higher = stronger binding
# All molecules: 7-deaza-guanosine replaces G
# All sequences stand within: GGGAGUUCUACAGUCCGACGAUC … UGGAAUUCUCGGGUGUCAAGG
Strand,log2 enrichment
UGGCCCUGGUGGCAUGCGGGGAGGAAGAGGUGGCCUCAUGGAUCGUGGUGGUCCCGGUGGAAUGUUCAGAGGUGGCCGUGGUUGAGACAG,-0.938
CACAGACAACACGCACCCACACAGACACAGAGGGAAGGGGUUGGGAUGGGAAAAGGGUGCACAGCAGGGCGGGGUAGGACCCCAGCCCCU,0.362
CCUGUGCUACACAUCGUAUGUACCGAAUCGGGCCCCCCGGGGCCCCCCGGGGCCCCCCGGGAAAGUAUUAUGUUACGCCGUUCGGAUCUG,-2.5
GCAGGAAGUAAAAACAAAUGGAAAUGCUUCGGAUAGUGGCAGGGGUGGGGGUUGCUAAGGAAAGGGAGGGAUGGGAGUGGGUAAAGAGUU,1.42
CAAGUCCUGUGCUACACAUCGUAUGUACCGAAUCGGGGUUUGGGGUGGGGUGGGGAAAGUAUUAUGUUACGCCGUUCGGAUCUGCACUUC,-0.571
UCCUGUGCUACACAUCGUAUGUACCGAAUCGGGAAAAAAGGGAAAAAAGGGAAAAAAGGGAAAGUAUUAUGUUACGCCGUUCGGAUCUGC,0.277
CCUGUGCUACACAUCGUAUGUACCGAAUCGGGGCCCCCCCGGCCCCCCCGGCCCCCCCGGGAAAGUAUUAUGUUACGCCGUUCGGAUCUG,0.892
CCUGUGCUACACAUCGUAUGUACCGAAUCAAACCCCCAAAUUUUUUUAAAUUUUUUUAAAAAAGUAUUAUGUUACGCCGUUCGGAUCUGC,1.33
CCUCAAGUCCUGUGCUACACAUCGUAUGUACCGAAUCGGGGAGGGGAGGAGGAAAGUAUUAUGUUACGCCGUUCGGAUCUGCACUUCCAG,-0.704

# For quick reference, copied from above (sample 6):
Strand,log2 enrichment
UGGCCCUGGUGGCAUGCGGGGAGGAAGAGGUGGCCUCAUGGAUCGUGGUGGUCCCGGUGGAAUGUUCAGAGGUGGCCGUGGUUGAGACAG,-0.938
CACAGACAACACGCACCCACACAGACACAGAGGGAAGGGGUUGGGAUGGGAAAAGGGUGCACAGCAGGGCGGGGUAGGACCCCAGCCCCU,0.362
CCUGUGCUACACAUCGUAUGUACCGAAUCGGGCCCCCCGGGGCCCCCCGGGGCCCCCCGGGAAAGUAUUAUGUUACGCCGUUCGGAUCUG,-2.5
GCAGGAAGUAAAAACAAAUGGAAAUGCUUCGGAUAGUGGCAGGGGUGGGGGUUGCUAAGGAAAGGGAGGGAUGGGAGUGGGUAAAGAGUU,1.42
CAAGUCCUGUGCUACACAUCGUAUGUACCGAAUCGGGGUUUGGGGUGGGGUGGGGAAAGUAUUAUGUUACGCCGUUCGGAUCUGCACUUC,-0.571
